Results of several laboratories.
Lines come from different studies, so protocols differ. Values joined by “and” are separate records of one study, mostly repeats; a detail may differ. Numbers after ± are the reported error.
Sequence of UniProt D0VWV4 (whole entry, looked up): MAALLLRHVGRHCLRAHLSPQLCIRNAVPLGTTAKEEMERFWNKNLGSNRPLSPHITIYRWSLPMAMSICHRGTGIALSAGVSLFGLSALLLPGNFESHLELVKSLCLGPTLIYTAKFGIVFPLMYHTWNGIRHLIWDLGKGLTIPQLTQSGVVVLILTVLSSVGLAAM
Sequence of UniProt A5GZW8 (whole entry, looked up): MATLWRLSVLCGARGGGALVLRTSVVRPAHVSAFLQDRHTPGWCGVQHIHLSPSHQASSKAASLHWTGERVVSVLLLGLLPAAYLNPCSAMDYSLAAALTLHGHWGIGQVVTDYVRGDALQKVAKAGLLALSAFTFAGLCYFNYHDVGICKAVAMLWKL
Sequence of UniProt P06276 (whole entry, looked up): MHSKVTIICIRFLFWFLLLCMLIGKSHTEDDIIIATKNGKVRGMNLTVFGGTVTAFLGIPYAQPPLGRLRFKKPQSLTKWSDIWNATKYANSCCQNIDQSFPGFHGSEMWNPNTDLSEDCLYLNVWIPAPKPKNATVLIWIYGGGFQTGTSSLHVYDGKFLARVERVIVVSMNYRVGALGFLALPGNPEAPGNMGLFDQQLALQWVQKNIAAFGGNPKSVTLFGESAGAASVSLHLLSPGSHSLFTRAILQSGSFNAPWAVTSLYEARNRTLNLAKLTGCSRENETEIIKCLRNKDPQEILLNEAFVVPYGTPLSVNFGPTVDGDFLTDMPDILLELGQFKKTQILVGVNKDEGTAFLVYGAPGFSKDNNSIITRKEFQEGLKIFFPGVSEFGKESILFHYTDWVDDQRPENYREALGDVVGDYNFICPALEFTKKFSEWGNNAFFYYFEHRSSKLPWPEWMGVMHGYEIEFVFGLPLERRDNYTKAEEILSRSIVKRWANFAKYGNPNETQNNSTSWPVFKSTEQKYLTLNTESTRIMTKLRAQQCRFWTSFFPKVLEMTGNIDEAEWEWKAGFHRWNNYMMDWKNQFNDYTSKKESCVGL
Sequence of UniProt Q007T0 (whole entry, looked up): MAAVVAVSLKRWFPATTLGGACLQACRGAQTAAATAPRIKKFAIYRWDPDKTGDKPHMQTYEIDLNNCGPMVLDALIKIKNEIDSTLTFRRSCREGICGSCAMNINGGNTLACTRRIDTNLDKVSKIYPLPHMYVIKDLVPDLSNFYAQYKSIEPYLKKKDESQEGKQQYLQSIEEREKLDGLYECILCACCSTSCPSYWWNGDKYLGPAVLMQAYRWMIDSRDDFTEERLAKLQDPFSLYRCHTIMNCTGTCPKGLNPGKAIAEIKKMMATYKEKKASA
Sequence of UniProt Q05941 (whole entry, looked up): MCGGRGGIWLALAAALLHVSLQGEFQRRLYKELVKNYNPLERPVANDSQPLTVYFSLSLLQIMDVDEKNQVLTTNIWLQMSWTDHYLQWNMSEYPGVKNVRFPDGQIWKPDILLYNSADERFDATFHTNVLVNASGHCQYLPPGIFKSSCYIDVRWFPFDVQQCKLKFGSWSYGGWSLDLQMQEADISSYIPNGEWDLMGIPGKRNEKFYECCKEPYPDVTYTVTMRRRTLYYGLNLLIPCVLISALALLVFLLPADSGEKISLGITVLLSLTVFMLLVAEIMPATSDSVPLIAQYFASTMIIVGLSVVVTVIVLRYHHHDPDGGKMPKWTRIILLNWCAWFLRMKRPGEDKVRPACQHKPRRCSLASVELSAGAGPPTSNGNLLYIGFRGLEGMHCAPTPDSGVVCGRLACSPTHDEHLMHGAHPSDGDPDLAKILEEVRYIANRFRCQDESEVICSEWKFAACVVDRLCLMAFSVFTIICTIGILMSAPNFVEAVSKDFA
Sequence of UniProt O70528 (whole entry, looked up): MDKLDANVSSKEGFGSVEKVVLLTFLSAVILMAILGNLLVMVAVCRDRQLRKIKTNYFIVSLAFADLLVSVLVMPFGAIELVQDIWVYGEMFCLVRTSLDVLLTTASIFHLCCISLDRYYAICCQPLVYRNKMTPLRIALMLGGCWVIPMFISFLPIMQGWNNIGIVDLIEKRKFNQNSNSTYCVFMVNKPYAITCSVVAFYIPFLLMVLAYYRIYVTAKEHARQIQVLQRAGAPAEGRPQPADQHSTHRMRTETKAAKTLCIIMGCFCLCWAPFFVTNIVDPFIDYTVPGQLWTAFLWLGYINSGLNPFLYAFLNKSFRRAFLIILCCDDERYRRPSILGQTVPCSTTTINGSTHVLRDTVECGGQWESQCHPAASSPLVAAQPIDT
Sequence of UniProt Q8TCC7 (whole entry, looked up): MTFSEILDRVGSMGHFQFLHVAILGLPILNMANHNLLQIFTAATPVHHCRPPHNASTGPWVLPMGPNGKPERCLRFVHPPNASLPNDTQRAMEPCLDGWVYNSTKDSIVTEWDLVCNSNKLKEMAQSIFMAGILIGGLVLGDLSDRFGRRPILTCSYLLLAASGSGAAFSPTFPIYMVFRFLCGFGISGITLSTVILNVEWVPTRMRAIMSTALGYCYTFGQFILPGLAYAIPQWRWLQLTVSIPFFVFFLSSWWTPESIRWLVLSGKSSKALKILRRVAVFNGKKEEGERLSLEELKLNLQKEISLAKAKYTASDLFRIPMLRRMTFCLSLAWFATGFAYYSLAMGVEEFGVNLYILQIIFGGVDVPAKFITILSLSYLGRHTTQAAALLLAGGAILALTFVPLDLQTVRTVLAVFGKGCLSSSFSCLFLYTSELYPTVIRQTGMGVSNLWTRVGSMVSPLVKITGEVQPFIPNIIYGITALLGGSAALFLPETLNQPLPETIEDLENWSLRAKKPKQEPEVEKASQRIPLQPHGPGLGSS
Sequence of UniProt O42275 (whole entry, looked up): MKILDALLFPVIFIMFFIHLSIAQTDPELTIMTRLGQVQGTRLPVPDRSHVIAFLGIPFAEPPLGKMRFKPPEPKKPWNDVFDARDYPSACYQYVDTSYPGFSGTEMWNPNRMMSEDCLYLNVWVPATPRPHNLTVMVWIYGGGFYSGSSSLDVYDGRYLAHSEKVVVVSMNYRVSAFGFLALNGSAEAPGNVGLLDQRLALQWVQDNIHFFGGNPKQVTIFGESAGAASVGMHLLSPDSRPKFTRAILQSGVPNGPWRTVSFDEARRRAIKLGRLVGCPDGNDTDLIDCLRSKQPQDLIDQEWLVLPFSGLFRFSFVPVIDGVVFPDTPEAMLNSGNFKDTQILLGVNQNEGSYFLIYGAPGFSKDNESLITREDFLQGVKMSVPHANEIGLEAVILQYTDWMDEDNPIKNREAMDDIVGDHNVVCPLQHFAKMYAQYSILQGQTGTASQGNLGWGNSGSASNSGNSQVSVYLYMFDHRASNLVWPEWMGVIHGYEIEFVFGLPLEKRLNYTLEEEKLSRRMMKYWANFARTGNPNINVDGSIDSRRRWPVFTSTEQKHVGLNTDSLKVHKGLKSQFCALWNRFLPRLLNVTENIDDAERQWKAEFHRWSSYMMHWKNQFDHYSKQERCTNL
Sequence of UniProt O88816 (whole entry, looked up): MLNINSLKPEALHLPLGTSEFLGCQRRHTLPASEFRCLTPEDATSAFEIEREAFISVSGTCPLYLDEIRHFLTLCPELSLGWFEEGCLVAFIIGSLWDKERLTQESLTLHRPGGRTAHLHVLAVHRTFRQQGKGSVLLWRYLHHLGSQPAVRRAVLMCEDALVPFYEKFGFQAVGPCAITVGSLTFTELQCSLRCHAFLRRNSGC
Sequence of UniProt P06213 (whole entry, looked up): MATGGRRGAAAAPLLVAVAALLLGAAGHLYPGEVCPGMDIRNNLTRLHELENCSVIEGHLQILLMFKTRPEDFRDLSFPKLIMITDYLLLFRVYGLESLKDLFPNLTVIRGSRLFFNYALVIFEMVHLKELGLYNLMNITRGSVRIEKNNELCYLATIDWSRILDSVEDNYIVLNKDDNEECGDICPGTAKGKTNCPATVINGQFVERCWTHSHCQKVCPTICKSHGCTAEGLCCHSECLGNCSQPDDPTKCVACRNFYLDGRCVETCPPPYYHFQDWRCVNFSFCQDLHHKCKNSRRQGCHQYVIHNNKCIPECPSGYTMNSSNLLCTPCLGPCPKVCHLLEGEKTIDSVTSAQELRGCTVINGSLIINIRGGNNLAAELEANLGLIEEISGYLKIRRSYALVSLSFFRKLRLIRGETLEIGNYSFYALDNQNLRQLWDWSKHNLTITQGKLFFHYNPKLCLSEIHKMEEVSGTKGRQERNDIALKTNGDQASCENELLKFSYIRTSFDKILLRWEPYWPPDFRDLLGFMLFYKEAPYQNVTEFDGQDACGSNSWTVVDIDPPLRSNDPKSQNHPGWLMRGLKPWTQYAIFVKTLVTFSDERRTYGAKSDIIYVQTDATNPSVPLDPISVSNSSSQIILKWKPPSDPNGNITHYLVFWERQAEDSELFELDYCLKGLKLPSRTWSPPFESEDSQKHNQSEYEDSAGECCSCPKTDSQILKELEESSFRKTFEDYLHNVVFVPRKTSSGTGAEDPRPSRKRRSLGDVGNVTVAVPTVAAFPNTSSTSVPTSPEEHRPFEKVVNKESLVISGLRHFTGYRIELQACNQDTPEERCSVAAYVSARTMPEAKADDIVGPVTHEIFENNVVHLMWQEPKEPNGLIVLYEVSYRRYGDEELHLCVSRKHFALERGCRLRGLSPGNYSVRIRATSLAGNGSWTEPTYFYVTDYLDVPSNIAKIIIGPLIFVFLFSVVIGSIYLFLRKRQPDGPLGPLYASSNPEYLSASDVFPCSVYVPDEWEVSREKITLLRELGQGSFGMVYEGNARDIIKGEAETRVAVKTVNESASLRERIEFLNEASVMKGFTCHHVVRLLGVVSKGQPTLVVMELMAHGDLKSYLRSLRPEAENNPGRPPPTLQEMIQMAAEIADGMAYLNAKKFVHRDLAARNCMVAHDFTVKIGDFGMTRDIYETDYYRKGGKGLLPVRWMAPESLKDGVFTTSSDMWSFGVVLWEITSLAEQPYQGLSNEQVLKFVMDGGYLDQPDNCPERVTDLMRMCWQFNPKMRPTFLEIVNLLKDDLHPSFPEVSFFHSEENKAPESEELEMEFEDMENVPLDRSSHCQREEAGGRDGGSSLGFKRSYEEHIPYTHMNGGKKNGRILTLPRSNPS

O=C(O)C(F)(F)C(F)(F)C(F)(F)C(F)(F)C(F)(F)C(F)(F)C(F)(F)F  linear uptake duration (SLC22A8 (Homo sapiens, UniProt Q8TCC7); substrate; HEK293 stably expressing; 10 µM): 2.5 min
C=C(CN(C(=O)c1c(C(F)F)nn(C)c1F)C1CC1)c1ccc(Cl)cc1Cl  reaction velocity (SDHD/SDHC/SDHB (Sus scrofa, UniProt A5GZW8+D0VWV4+Q007T0); enzyme activity, inhibitor, DCIP reduction; pig; 0.2 µM, together with: DCIP 120 µM): 0.0214 µM/s and 0.0194 µM/s and 0.0195 µM/s
CC1(C)C(C=C(Cl)Cl)C1C(=O)OCc1cccc(Oc2ccccc2)c1 (stereo not drawn)  remaining activity (uncharacterized protein (Anopheles coluzzii, UniProt A0A6E8VQK1); enzyme activity, inhibitor; Sf9 cell homogenate; 23.26 µM, 0.1667 h, together with: α-naphthyl acetate substrate; reference: no inhibitor): 97.8%
O=C(c1ccc(Cl)cc1)N1CCN2C(=O)N(OC(=O)N3CCOc4ccccc43)C(=O)C2C1 (stereo not drawn)  mean protein ratio (FAP (Homo sapiens, UniProt Q12884); MS-based ABPP; SW-620 conditioned medium; 10 µM, 1 h, 37 °C; reference: compound over DMSO, lower = more inhibition): 0.96
CC1(C)S[C@@H]2[C@H](NC(=O)[C@H](N)c3ccccc3)C(=O)N2[C@H]1C(=O)O  kinact/KI (Penicillin-binding protein 2B (Streptococcus pneumoniae, UniProt P0A3M6); inhibitor): 6700 ± 240 M⁻¹ s⁻¹
Cc1cc(=O)oc2cc(OCCCC[Se]C#N)ccc12  selectivity ratio (CA12 (Homo sapiens, UniProt O43570); stopped-flow CO2 hydration; reference: Ki CA I over Ki CA XII): > 1940
O=C(Nc1cnccc1Cl)N1CCN(Cc2ccc3c(c2)OC(F)(F)O3)CC1  inhibition (Abhydrolase domain-containing protein 11 (Rattus norvegicus, UniProt D3ZXK4); probe labelling, inhibitor, competitive ABPP with azido-FP probe, measured: Abhd11; rat brain soluble fraction; 1 µM): 7.9%
[2H]c1c([2H])c([C@]2([2H])CCCN2C(=O)C(C)(C)Oc2ccc3cn[nH]c3c2)c([2H])c([2H])c1C([2H])([2H])[2H]  remaining binding (SNRK (Homo sapiens, UniProt Q9NRH2); KINOMEscan; 1 µM; reference: DMSO control): 100%
S=C(SSC(=S)N1CCCCC1)N1CCCCC1  efficacy (Cholinesterase (BCHE, Homo sapiens, UniProt P06276); concentration not given, Triton): -65.7 ± 18.6%
CC[C@H]1NC(=O)[C@@H]2CSC(=N2)[C@@H](Cc2ccccc2)N(C)C(=O)[C@@H]2CCCN2C(=O)[C@H](C(C)C)N(C)C(=O)[C@H](Cc2ccccc2)OC(=O)[C@H](C)[C@@H](C)NC(=O)[C@@H]([C@@H](C)O)NC(=O)[C@@H](CC(C)C)N(C)C(=O)[C@@H]2CSC1=N2  remaining activity (PROC (Homo sapiens, UniProt P04070); 20 µM; reference: solvent control): 14%
Clc1cccc(-c2cccc(Cl)c2)c1  maximum activity (Androgen receptor (AR, Homo sapiens, UniProt P10275); reporter gene, antagonist; 40 µM, together with: DHT 2 nM; reference: DHT 2 nM): 14%
O=C(Nc1cccnn1)N1CCC(=Cc2cccc(Oc3ccc(C(F)(F)F)cn3)c2)CC1  inhibition of binding (HTR4 (Cavia porcellus, UniProt O70528); radioligand binding; 10 µM, together with: [3H]GR-113808): 4%
NCCc1c[nH]c2ccc(O)cc12  Km (Serotonin N-acetyltransferase (Aanat, Mus musculus, UniProt O88816); enzyme activity, colorimetric DTNB; together with: acetyl-CoA): < 10 µM
CN(C(=O)n1cnc(-c2ccc[n+]([O-])c2)c1)C1CCCCC1  inhibition (PTGER4 (Homo sapiens, UniProt P35408); binding, measured: EP4; 10 µM, human, together with: [3H]prostaglandin E2): 3%
CCOC(=O)COc1ccc2c(=O)c3ccccc3oc2c1  reaction velocity (ache (Electrophorus electricus, UniProt O42275); enzyme activity; 3.36 µM, together with: substrate 1.73 mM; higher = faster reaction): 0.0014 a.u.
CCN(CC)CCCC[C@H](NC(=O)[C@H](CC(C)C)NC(=O)[C@H](C)NC(=O)[C@H](Cc1ccccc1)NC(=O)c1ccc(C(C)(C)C)cc1)C(=O)N[C@@H](CO)C(=O)OC  delta Tm (Peregrin, isoform A (BRPF1, Homo sapiens, UniProt P55201); thermal stabilisation, thermal shift; 25 µM; reference: protein without compound, higher = stronger binding): -0.04 °C
C[C@H]1CN(c2n[nH]c3nc(N[C@H]4CC[C@H](NS(=O)(=O)CCC(F)(F)F)CC4)ncc23)CCO1  remaining binding (Zinc transporter 7 (Homo sapiens, UniProt Q8NEW0); Kinobeads competition, measured: SLC30A7; 20 µM, unit not given; reference: vehicle): 1.25
CC(C)(C)NCC(O)COc1ccccc1OCC1CCCO1 (stereo not drawn)  efficacy (Cholinesterase (BCHE, Homo sapiens, UniProt P06276); concentration not given, Triton): -71.3 ± 26.6%
COc1cc(Nc2ncc(F)c(Nc3ccc4c(n3)NC(=O)C(C)(C)O4)n2)cc(OC)c1OC  inhibition (Insulin receptor (INSR, Homo sapiens, UniProt P06213); KINOMEscan; 10 µM): 65%
Nc1nc2c(ncn2[C@@H]2O[C@H](COP(=O)(O)OP(=O)(O)OP(=O)(O)O)[C@@H](O)[C@H]2O)c(=O)[nH]1  binding entropy ΔS (GTP 3',8-cyclase (moaA, Staphylococcus aureus, UniProt P69848); isothermal titration calorimetry; concentration not given): -41.7 cal/mol/K
COC(=O)c1ccc(NS(=O)(=O)c2c(C)[nH]c(C)c2C(=O)N2CCC(F)(F)C2)cc1Cl  Imax (DRD3 (Homo sapiens, UniProt P35462); β-arrestin recruitment, agonist, PathHunter; reference: dopamine): 95 ± 4%
COc1cc(CCC(=O)N2CCC(Cc3ccccc3)CC2)ccc1OC(=O)N(C)C  selectivity ratio (Cholinesterase (BCHE, Equus caballus, UniProt P81908); Ellman; equine serum BuChE; reference: AChE IC50 over BuChE IC50): 6.6
COc1ccc(N2C(=O)N(c3c(C)cccc3Cl)Cc3cnc(Nc4ccc(C5CCN(C)CC5)cc4OC)nc32)nc1  inhibition (MAP2K3 (Homo sapiens, UniProt P46734); kinase activity, inhibitor; 0.5 µM, MEK3): -16%
COc1cc(N)c(Cl)cc1C(=O)NC1CN2CCC1CC2 (stereo not drawn)  log2 fold change (Probable G-protein coupled receptor 150 (GPR150, Homo sapiens, UniProt Q8NGU9); β-arrestin recruitment, TANGO luminescence, measured: GPR150; concentration not given; reference: basal luminescence): 0.019
Cc1nn(C)cc1-c1nc2c(N3CCN(Cc4ccc(Cl)cc4)CC3)c(Cl)cnc2[nH]1  remaining binding (Tyrosine-protein kinase ABL1, non-phosphorylated (ABL1, Homo sapiens, UniProt P00519, Q252H); KINOMEscan; 1 µM; reference: DMSO control): 100%
COC1=C(OC)C(=O)C(CC=C(C)C)=C(C)C1=O  P+QA− recombination rate (Reaction center protein M chain, QA site (pufM, Cereibacter sphaeroides, UniProt P0C0Y9); charge recombination; Rhodobacter sphaeroides, LDAO detergent solution; pH 7.8, 298 K, quinone reconstituted in QA site): 10 s⁻¹
Nc1ncnc2c1ncn2[C@@H]1O[C@H](COP(=O)(O)OP(=O)(O)O)[C@@H](O)[C@H]1O  -TΔS (Cell cycle histidine kinase CckA, G318A; cytoplasmic region (Caulobacter vibrioides, UniProt Q9X688, G318A); binding, ITC; 25 °C, together with: without c-di-GMP): -4.5 kcal/mol
Oc1noc2c1CCNC2  maximal response (GABA-A receptor; alpha-1/beta-2/gamma-2 (Rattus norvegicus, UniProt P18508+P62813+P63138); membrane potential, agonist, QP-DHM fluorescence; HEK293 expressing GABAA; reference: GABA): 74%
O=c1cc(CSc2ccc(N=Cc3ccc(F)cc3)cc2)occ1O  fluorescence decrease (MAL12 (Saccharomyces cerevisiae S288c, UniProt P53341); intrinsic fluorescence; 20 µM): ~52%
O=C(O)COP(=O)(O)O  Ki ratio (TPI1 (Saccharomyces cerevisiae, UniProt P00942, S211G); enzyme activity, competitive inhibitor, GPDH/NADH-coupled; pH 7.5, 25 °C, ionic strength 0.1 NaCl, together with: glyceraldehyde 3-phosphate substrate; reference: mutant over wild type): 1.7
CC12CCC(CC1)C(C)(C)O2  coupling efficiency (1,8-cineole 2-endo-monooxygenase (cinA, Citrobacter braakii, UniProt Q8VQF6, Y81F); product per NADPH consumed, substrate, GC-MS; Y81F enzyme variant): 105%
Nc1nc2c(ncn2[C@H]2C[C@H](O)[C@@H](COP(=O)(O)OP(=O)(O)OP(=O)(O)O)O2)c(=O)[nH]1  kcat (Gag-Pol polyprotein, reverse transcriptase (gag-pol, Human immunodeficiency virus type 1 group M subtype B, UniProt P04585, K653T); nucleotide misincorporation, steady-state kinetics; K66T RT, together with: matched template/primer, template T): 0.0472 ± 0.00333 s⁻¹
C[N+]1(CCF)[C@@H]2CC[C@H]1C[C@@H](OC(=O)C(O)(c1ccccc1)c1ccccc1)C2 (stereo partly drawn)  efficacy (Cholinesterase (BCHE, Homo sapiens, UniProt P06276); concentration not given, Triton): -90 ± 11.7%
COc1ccc2[nH]c3c(c2c1)CCN(C)CC3.Cl  recovery time constant (Chrna7 (Rattus norvegicus, UniProt Q05941); ion current, inhibitor, two-electrode voltage clamp; Xenopus laevis oocytes; 10 µM, rat receptor, together with: acetylcholine 100 µM): 8.6 s
CCCCC/C=C\C/C=C\C/C=C\C/C=C\CCCC(=O)NCCO  Hill coefficient (Trpv1 (Mus musculus, UniProt Q704Y3, N552Q); ion current, agonist, whole-cell patch clamp; N552Q): 3.34 ± 0.31
CN1CCN(c2cc(-c3ccncc3)c(-c3ccc4ccccc4c3)nn2)CC1  activation (CHRM4 (Homo sapiens, UniProt P08173); agonist, FLIPR; 12.5 µM): 4.2%

For quick reference, copied from above:
NCCc1c[nH]c2ccc(O)cc12  Km (Serotonin N-acetyltransferase (Aanat, Mus musculus, UniProt O88816); enzyme activity, colorimetric DTNB; together with: acetyl-CoA): < 10 µM
C[N+]1(CCF)[C@@H]2CC[C@H]1C[C@@H](OC(=O)C(O)(c1ccccc1)c1ccccc1)C2 (stereo partly drawn)  efficacy (Cholinesterase (BCHE, Homo sapiens, UniProt P06276); concentration not given, Triton): -90 ± 11.7%
COc1cc(CCC(=O)N2CCC(Cc3ccccc3)CC2)ccc1OC(=O)N(C)C  selectivity ratio (Cholinesterase (BCHE, Equus caballus, UniProt P81908); Ellman; equine serum BuChE; reference: AChE IC50 over BuChE IC50): 6.6
Cc1nn(C)cc1-c1nc2c(N3CCN(Cc4ccc(Cl)cc4)CC3)c(Cl)cnc2[nH]1  remaining binding (Tyrosine-protein kinase ABL1, non-phosphorylated (ABL1, Homo sapiens, UniProt P00519, Q252H); KINOMEscan; 1 µM; reference: DMSO control): 100%
